Results from different studies.
Protocols differ between the studies behind these lines. “And” joins repeats or separate records; there may be more than shown. ± marks the error that the study gave.
UniProt Q01959, sequence (whole entry, unmodified, looked up): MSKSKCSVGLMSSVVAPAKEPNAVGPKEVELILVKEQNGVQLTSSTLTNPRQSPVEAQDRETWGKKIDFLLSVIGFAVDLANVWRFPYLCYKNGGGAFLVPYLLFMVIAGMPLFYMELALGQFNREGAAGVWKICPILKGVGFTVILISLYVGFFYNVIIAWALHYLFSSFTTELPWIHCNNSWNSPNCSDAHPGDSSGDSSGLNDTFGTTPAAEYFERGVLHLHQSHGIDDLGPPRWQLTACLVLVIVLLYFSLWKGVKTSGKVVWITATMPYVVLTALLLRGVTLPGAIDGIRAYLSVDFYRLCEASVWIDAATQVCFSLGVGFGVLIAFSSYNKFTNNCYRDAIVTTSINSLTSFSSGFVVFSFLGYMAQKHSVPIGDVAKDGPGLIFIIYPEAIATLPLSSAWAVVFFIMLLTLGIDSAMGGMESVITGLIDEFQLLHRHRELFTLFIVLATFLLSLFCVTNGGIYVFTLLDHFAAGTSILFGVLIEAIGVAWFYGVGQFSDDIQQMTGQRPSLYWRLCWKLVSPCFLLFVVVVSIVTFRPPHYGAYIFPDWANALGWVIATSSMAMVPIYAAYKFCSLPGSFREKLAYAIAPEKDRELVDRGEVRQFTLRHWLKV
UniProt P08172, sequence (whole entry, looked up): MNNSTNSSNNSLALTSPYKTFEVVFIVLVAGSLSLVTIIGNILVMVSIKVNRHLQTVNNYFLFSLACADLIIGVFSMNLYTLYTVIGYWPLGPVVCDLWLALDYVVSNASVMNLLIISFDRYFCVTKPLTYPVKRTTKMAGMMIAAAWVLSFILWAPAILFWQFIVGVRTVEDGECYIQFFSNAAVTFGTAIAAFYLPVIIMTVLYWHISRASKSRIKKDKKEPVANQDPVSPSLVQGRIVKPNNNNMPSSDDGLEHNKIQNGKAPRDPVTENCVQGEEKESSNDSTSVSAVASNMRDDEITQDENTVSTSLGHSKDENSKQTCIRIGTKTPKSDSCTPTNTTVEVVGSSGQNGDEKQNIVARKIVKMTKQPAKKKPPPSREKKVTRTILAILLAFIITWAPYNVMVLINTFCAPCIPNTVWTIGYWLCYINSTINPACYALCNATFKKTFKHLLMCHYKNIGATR
UniProt Q96P68, sequence (whole entry, looked up): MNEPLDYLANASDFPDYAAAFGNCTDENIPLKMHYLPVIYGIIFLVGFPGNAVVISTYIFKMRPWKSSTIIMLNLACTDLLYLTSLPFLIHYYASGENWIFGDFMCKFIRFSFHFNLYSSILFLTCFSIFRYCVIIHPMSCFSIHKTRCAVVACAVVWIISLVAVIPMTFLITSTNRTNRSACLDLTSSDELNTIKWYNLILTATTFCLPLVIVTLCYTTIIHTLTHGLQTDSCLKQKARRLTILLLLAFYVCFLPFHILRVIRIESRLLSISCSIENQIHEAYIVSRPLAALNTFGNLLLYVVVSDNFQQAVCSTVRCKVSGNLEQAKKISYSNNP
UniProt Q13153, sequence (whole entry, looked up): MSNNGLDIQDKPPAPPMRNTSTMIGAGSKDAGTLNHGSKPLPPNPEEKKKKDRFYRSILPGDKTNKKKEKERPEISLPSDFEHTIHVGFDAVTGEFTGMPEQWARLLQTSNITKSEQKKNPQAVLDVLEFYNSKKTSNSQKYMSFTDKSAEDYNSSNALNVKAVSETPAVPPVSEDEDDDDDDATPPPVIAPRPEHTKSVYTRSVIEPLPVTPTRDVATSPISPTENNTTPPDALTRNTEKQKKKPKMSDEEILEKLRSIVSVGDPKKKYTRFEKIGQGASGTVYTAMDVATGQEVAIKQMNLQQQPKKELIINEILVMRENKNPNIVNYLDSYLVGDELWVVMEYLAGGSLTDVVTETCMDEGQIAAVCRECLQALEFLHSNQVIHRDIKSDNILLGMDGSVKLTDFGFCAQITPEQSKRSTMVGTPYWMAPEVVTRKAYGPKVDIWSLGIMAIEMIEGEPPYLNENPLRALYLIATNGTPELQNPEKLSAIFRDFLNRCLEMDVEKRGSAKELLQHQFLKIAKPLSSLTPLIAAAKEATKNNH
UniProt P14867, sequence (whole entry, looked up): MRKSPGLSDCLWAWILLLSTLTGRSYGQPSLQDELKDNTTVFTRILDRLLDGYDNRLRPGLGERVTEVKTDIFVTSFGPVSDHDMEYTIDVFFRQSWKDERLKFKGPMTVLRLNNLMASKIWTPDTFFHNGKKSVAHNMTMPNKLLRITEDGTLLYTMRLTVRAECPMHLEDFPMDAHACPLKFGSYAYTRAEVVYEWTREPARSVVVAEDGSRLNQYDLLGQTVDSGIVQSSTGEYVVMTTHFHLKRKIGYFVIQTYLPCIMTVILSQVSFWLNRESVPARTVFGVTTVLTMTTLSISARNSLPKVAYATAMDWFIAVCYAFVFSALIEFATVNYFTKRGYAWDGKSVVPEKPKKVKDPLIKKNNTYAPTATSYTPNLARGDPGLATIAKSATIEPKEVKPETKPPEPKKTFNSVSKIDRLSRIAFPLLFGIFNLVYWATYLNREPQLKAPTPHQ
UniProt P21554, sequence (whole entry, looked up): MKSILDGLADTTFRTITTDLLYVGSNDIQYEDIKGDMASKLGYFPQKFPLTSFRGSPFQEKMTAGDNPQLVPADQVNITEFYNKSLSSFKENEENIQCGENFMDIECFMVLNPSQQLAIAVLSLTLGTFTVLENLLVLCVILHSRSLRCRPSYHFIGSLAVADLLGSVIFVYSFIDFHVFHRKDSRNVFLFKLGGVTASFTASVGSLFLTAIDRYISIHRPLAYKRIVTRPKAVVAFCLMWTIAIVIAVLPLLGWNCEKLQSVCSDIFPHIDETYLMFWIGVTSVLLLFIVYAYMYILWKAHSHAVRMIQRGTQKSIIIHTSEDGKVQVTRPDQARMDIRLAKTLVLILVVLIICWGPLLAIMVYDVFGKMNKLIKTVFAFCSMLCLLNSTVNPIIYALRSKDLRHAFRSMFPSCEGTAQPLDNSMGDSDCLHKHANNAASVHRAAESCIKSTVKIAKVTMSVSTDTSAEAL
UniProt P18507, sequence (whole entry, looked up): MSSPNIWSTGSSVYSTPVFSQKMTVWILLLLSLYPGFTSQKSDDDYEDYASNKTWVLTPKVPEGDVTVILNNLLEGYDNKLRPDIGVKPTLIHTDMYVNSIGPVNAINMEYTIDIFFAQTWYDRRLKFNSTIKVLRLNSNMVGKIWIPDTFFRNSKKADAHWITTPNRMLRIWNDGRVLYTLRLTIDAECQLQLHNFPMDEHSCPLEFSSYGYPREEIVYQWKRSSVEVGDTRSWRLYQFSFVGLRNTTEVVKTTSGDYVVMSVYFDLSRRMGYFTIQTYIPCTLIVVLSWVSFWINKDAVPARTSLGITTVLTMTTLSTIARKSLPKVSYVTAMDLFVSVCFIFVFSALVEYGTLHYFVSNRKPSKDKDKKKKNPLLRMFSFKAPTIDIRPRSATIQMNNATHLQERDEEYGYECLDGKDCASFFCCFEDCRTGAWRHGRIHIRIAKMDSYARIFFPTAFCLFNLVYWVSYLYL
UniProt P28335, sequence (whole entry, looked up): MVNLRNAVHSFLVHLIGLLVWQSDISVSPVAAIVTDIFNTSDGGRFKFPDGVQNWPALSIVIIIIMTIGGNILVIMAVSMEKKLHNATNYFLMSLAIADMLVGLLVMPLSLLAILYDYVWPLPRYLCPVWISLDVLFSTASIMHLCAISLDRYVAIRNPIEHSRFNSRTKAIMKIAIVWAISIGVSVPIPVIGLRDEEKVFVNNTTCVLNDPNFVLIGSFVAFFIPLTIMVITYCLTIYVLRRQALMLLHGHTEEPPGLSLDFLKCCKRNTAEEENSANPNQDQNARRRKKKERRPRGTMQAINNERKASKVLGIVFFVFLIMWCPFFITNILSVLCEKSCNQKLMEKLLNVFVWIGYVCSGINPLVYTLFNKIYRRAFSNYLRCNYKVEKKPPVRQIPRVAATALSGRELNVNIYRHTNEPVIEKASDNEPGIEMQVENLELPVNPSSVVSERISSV
UniProt P16257, sequence (whole entry, looked up): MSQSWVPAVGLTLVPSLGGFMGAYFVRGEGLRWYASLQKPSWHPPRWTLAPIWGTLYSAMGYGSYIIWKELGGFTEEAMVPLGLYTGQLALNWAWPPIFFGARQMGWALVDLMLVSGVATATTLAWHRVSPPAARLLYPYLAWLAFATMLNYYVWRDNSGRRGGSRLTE
UniProt P0A4Q0, sequence (whole entry, looked up): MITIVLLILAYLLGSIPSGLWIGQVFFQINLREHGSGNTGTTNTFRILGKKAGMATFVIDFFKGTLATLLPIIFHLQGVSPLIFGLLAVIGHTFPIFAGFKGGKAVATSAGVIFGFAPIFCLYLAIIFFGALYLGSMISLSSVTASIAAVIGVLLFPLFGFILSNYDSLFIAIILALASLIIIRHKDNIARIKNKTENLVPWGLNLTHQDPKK
UniProt Q8WZ82, sequence (whole entry, looked up): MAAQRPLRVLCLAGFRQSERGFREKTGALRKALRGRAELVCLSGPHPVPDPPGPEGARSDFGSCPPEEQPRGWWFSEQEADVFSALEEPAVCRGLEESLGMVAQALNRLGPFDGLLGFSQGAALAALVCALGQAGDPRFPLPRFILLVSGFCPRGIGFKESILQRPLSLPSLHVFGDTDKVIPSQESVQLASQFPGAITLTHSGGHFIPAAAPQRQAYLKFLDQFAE
UniProt P48047, sequence (whole entry, looked up): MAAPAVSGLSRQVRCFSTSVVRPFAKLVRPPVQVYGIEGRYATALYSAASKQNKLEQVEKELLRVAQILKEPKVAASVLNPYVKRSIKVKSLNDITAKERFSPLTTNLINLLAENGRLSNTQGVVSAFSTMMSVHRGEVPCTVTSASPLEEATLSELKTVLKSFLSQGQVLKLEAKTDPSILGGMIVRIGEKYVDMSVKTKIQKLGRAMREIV

Structure (SMILES)	target or system	assay	test system	setting	scale	quantity	value
COc1ccc(OS(=O)(=O)NC(=O)CCCCc2ccccc2)cc1	Glycerol-3-phosphate acyltransferase (plsY, Streptococcus pneumoniae, UniProt P0A4Q0)	inhibitor	–	200 µM	–	inhibition	12%
CN1CC[C@]2(C)c3cc(OC(=O)Nc4ccccc4)ccc3N(C)[C@H]12	human nicotinic α3β4 receptor	radioligand binding	–	10 µM, with: [3H]epibatidine	–	inhibition	0.9%
CC[C@H](C)[C@H](NC(=O)[C@H](Cc1ccccc1)NC(=O)[C@H](CCC(=O)O)NC(=O)[C@H](CCCNC(=N)N)NC(=O)[C@H](C)NC(=O)[C@H](C)NC(=O)[C@H](CCC(N)=O)NC(=O)[C@H](CCC(=O)O)NC(=O)[C@H](CCC(=O)O)NC(=O)[C@H](CC(C)C)NC(=O)[C@H](Cc1ccc(O)cc1)NC(=O)[C@H](CO)NC(=O)[C@H](CO)NC(=O)[C@@H](NC(=O)[C@H](CC(=O)O)NC(=O)[C@H](CO)NC(=O)[C@@H](NC(=O)[C@H](Cc1ccccc1)NC(=O)[C@@H](NC(=O)CNC(=O)[C@H](CCC(=O)O)NC(=O)[C@H](C)NC(=O)CCc1c[nH]cn1)[C@@H](C)O)[C@@H](C)O)C(C)C)C(=O)N[C@@H](C)C(=O)N[C@@H](Cc1c[nH]c2ccccc12)C(=O)N[C@@H](CC(C)C)C(=O)N[C@H](C(=O)N[C@@H](CCCNC(=N)N)C(=O)NCC(=O)N[C@@H](CCCNC(=N)N)C(=O)N[C@@H](CCCCNC(=O)COCCOCCNC(=O)COCCOCCNC(=O)CC[C@H](NC(=O)CCCCCCCCCCCCCCCCC(=O)O)C(=O)O)C(=O)NCC(=O)NCC(=O)N[C@@H](CO)C(=O)N[C@@H](CCCCNc1c(NCCCCCN(O)C(=O)CCC(=O)NCCCCCN(O)C(=O)CCC(=O)NCCCCCN(O)C(C)=O)c(=O)c1=O)C(=O)O)C(C)C [zirconium-89 labelled]	–	–	rat, liver	sc, 3 nmol/kg, 168 h, ex vivo	–	tissue uptake	0.45 %ID/g
COC(=O)[C@@H](NC(=O)c1nn(Cc2ccc(F)cc2)c2ccccc12)C(C)(C)C	Cannabinoid receptor 1, with Goa (CNR1, Homo sapiens, UniProt P21554)	GTP turnover, agonist, measured: Goa Gα subtype	–	–	–	maximal efficacy	122%
[2H]c1c([2H])c([C@]2([2H])CCCN2C(=O)C(C)(C)Oc2ccc3cn[nH]c3c2)c([2H])c([2H])c1C([2H])([2H])[2H]	ALK (Homo sapiens, UniProt Q9UM73)	KINOMEscan	–	1 µM	baseline: DMSO control	remaining binding	100%
C[C@H]1CN(c2n[nH]c3nc(N[C@H]4CC[C@H](NS(=O)(=O)CCC(F)(F)F)CC4)ncc23)CCO1	ATP synthase peripheral stalk subunit OSCP, mitochondrial (Homo sapiens, UniProt P48047)	Kinobeads competition, measured: ATP5O	–	20 µM, unit not given	baseline: vehicle	remaining binding	1.24
COc1ccc(N2C(=O)N(c3c(C)cccc3Cl)Cc3cnc(Nc4ccc(C5CCN(C)CC5)cc4OC)nc32)nc1	PAK1 (Homo sapiens, UniProt Q13153)	kinase activity	–	0.5 µM	–	inhibition	20%
C[C@]12N[C@H](Cc3ccccc31)c1ccccc12	NMDA receptor GluN1/GluN2A lacking NTD	ion current, inhibitor, oocyte voltage clamp	–	50 nM	–	onset time constant	6.8 ± 0.6 s
CO[C@H]1C[C@@H]2CC[C@@H](C)[C@@](O)(O2)C(=O)C(=O)N2CCCC[C@H]2C(=O)O[C@H]([C@H](C)C[C@@H]2CC[C@@H](OC(=O)NCCOCCOCCOCCOCCOCCOCCOCCOCCC(=O)N3CCc4cc(Cn5nc(-c6ccc7oc(N)nc7c6)c6c(N)ncnc65)ccc4C3)[C@H](OC)C2)C[C@@H](O)[C@H](C)/C=C(\C)[C@@H](O)[C@@H](OC)C(=O)[C@H](C)C[C@H](C)/C=C/C=C/C=C/1C	–	–	patients with advanced solid tumours	intravenous, 6 mg weekly, any grade	–	decreased appetite incidence	75%
CN[C@]1(c2ccccc2Cl)CCCCC1=O	AMPA receptor	radioligand binding, agonist, radioligand displacement	–	30 µM	–	inhibition	1%
Brc1ccc2c(c1)C(c1ccccn1)=NCc1c(-c3cnco3)ncn1-2	Tspo (Rattus norvegicus, UniProt P16257)	–	rat	10 µM	–	inhibition	93.4%
CCCCCCCC[C@H]1O[C@H]1C/C=C/C=C/[C@H](O)CC(=O)NC1=C[C@](C)(CC)OC1=O	Na(+)-translocating NADH-quinone reductase subunit B, whole Na+-NQR complex (nqrB, Vibrio cholerae serotype O1, UniProt Q9KPS2, G141A)	binding, isothermal titration calorimetry	–	20 °C, NqrB-G141A mutant	–	−TΔS	60 kcal/mol
C=CCN1CC[C@]23c4c5ccc(O)c4O[C@H]2C(=O)CC[C@]3(O)[C@H]1C5	Gamma-aminobutyric acid receptor subunit alpha-1/gamma-2 (Homo sapiens, UniProt P14867+P18507)	–	–	concentration not given	–	inhibition	0.7%
CC[C@H](C)[C@@H]1NC(=O)[C@@H]2CCCN2C(=O)[C@H](CC(C)C)NC(=O)[C@H](CC(C)C)NC(=O)CNC(=O)[C@@H](NC(=O)[C@@H](NC(=O)[C@H](CC(=O)O)NC(=O)CNC(=O)[C@@H](NC(=O)[C@H](C)NC(=O)CNC(=O)[C@H](CCCCN)NC(=O)[C@H](CC(C)C)NC(=O)[C@H](CC(C)C)NC(=O)[C@H](CCCCN)NC(=O)CNC(=O)[C@@H](NC(=O)[C@@H](N)CC(C)C)C(C)C)C(C)C)C(C)C)CSSC[C@@H](C(=O)O)NC1=O	–	RNA-seq, measured: Trim15	mouse, traumatic brain injury model, frontal cortex and hippocampus	dose not given	baseline: TBI alone	log2 fold change	-1.61
Oc1ccc2c3c1O[C@H]1[C@@H](O)CC[C@@]4(O)[C@@H](C2)N(CC2CCC2)CC[C@]314	OXGR1 (Homo sapiens, UniProt Q96P68)	β-arrestin recruitment, TANGO luminescence	–	concentration not given	baseline: basal luminescence	log2 fold change	0.514
CCCc1cc(O)c2c(c1)OC(C)(C)[C@@H]1CCC(C)=C[C@@H]21	TRPV3 (Homo sapiens, UniProt Q8NET8, S444L)	calcium uptake, agonist	HEK293S	mutant S444L, site 2	–	Hill coefficient	1.8 ± 0.39
CN[C@@H](C)[C@@H](O)c1ccccc1	OCT1 human	binding, frontal displacement chromatography	–	unit not given	baseline: higher Ki over lower Ki	enantioselectivity	1.5
Clc1cccc(N2CCNCC2)c1Cl	CHRM2 (Homo sapiens, UniProt P08172)	ERK1/2 phosphorylation, agonist	CHO cells	–	–	Emax	< 10%
c1ccc2cc([C@]34CNC[C@H]3C4)ccc2c1	SLC6A3 (Homo sapiens, UniProt Q01959, F326A)	inhibitor, [3H]dopamine uptake	–	10 µM, F326A mutant	baseline: no inhibitor	dopamine uptake	19.4% and 23.4% and 31.3%
COc1cc(CCNC(C)c2ccccc2O)c(OC)cc1C#N (single isomer, unassigned; (-))	HTR2C (Homo sapiens, UniProt P28335)	calcium flux, agonist	–	–	baseline: calcium flux over Gq dissociation (BRET)	fold potency decrease	4 fold
O=C(c1ccc(Cl)cc1)N1CCN2C(=O)N(OC(=O)N3CCOc4ccccc43)C(=O)C2C1 (stereo not drawn)	OVCA2 (Homo sapiens, UniProt Q8WZ82)	enzyme activity, inhibitor, MS-based ABPP	SW-620 conditioned medium	10 µM, 1 h, 37 °C	baseline: compound over DMSO, lower = stronger inhibition	median ratio	1.57
